Results pooled from the literature.
Numbered parts are unrelated; each lists some results of a single study.

Sample 1 — observed: enzyme activity; mode: inhibitor; tested at: 0.5 µM; relative to: control
Target: Serine/threonine-protein kinase 17A (STK17A, Homo sapiens, UniProt Q9UEE5)
Construct (Q9UEE5 1-414): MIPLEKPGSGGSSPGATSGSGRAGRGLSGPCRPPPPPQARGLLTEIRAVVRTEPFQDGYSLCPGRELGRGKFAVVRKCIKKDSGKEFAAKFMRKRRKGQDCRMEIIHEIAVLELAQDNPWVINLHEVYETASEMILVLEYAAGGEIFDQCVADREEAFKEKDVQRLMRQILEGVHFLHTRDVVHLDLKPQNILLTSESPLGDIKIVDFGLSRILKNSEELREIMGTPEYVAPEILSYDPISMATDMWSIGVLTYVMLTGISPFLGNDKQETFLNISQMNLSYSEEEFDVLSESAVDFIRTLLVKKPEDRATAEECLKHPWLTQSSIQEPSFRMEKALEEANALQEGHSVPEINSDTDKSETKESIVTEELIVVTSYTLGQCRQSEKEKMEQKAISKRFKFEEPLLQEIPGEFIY
With `COc1ccc(OC)c2c(=S)c3ccccc3[nH]c12` the remaining activity was 90.3%.
For `CC(C)[C@H](CO)Nc1nc(Nc2cc(N)cc(Cl)c2)c2ncn(C(C)C)c2n1`, the remaining activity was 96.3%.
The remaining activity of `COc1cc2nccc(Oc3ccc(NC(=S)NC(=O)c4ccccc4C)cc3)c2cc1OC` is reported as 82.3%.
With `CO[C@H]1C[C@@H]2CC[C@@H](C)[C@@](O)(O2)C(=O)C(=O)N2CCCC[C@H]2C(=O)O[C@H]([C@H](C)C[C@@H]2CC[C@@H](O)[C@H](OC)C2)CC(=O)[C@H](C)/C=C(\C)[C@@H](O)[C@@H](OC)C(=O)[C@H](C)C[C@H](C)/C=C/C=C/C=C/1C` the remaining activity was 95.9%.
`O=S(=O)(c1cccc2cnccc12)N1CCCNCC1` gave a remaining activity of 98.2%.
For `CCOC(=O)c1c(C)[nH]c(/C=C2\C(=O)Nc3ccccc32)c1C`, the remaining activity was 81.4%.
`O=C(Nc1cccc(Nc2cc(Nc3cccc(C(F)(F)F)c3)ncn2)c1)C1CC1` has a remaining activity of 99.2%.
For `COc1ccc(CNC(=O)Nc2ncc([N+](=O)[O-])s2)cc1`, the remaining activity was 91.6%.
For `Cc1nc(-c2ccccc2)c(-c2ccncc2)o1`, the remaining activity was 99.5%.
For `O=c1c2ccccc2[nH]c(=S)n1CCN1CCC(=C(c2ccc(F)cc2)c2ccc(F)cc2)CC1`, the remaining activity was 103%.
`COc1ccc(C(=O)Nc2sc3c(c2C(N)=O)CCCC3)cc1OC` has a remaining activity of 98.5%.
For `O=C1NC(=O)C(c2cn(CCCn3ccnc3)c3ccccc23)=C1Nc1ccccc1`, the remaining activity was 93.1%.
The remaining activity of `Cn1c2ccccc2c2c3c(c4c5ccccc5n(CCC#N)c4c21)CNC3=O` is reported as 85.3%.

Sample 2 — observed: cell-free assay; tested at: 10 µM
Target: 5-hydroxytryptamine receptor 5A (HTR5A, Homo sapiens, UniProt P47898)
UniProt P47898, sequence (whole entry, looked up): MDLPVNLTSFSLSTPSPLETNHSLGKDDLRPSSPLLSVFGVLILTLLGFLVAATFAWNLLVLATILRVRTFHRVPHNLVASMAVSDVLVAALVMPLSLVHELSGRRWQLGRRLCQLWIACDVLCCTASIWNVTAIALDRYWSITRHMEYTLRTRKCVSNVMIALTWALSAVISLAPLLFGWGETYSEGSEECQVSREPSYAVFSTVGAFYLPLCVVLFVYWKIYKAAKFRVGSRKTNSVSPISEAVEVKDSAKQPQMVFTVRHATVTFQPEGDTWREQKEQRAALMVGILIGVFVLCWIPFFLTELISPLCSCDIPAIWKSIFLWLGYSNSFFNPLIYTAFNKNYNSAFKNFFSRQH
With `CO[C@@H](C)c1c(Nc2ccc([C@H](N(C)C(=O)C3CCS(=O)(=O)CC3)C(F)(F)F)cc2)cnc2cc(Cl)nn12` the inhibition was -13.3%.
The inhibition of `CCS(=O)(=O)c1cc2cc(C[C@@](O)(CC(C)(C)c3ccc(F)cc3C(N)=O)C(F)(F)F)[nH]c2cn1` is reported as -11.6%.
`Cn1nc(C(=O)NCc2ccc(C(=O)O)cc2)cc1-c1ccc2[nH]ccc2c1` gave an inhibition of 0.78%.
`O=C(NC[C@@H]1[C@H]2CN(C(=O)OCc3cc(C(F)(F)F)cc(C(F)(F)F)c3)C[C@@H]12)c1ccc2[nH]nnc2c1` has an inhibition of 33.2%.
`Cc1c(C(=O)O)cc(-c2ccc(C3CCNCC3)cc2)c2ccc(-c3ccc(C(F)(F)F)cc3)cc12` gave an inhibition of -0.81%.
The inhibition of `CC(=O)Nc1ncc(CN2CCC[C@H](Cc3cc(C)nc(C)c3)C2)s1` is reported as 18.7%.
For `O=C(Nc1cccnn1)N1CC(CC=Cc2cncc(Oc3ccc(C(F)(F)F)cn3)n2)C1`, the inhibition was 7.85%.

Sample 3 — mode: agonist
Target: Beta-1 adrenergic receptor (ADRB1, Homo sapiens, UniProt P08588)
UniProt P08588, sequence (whole entry, looked up): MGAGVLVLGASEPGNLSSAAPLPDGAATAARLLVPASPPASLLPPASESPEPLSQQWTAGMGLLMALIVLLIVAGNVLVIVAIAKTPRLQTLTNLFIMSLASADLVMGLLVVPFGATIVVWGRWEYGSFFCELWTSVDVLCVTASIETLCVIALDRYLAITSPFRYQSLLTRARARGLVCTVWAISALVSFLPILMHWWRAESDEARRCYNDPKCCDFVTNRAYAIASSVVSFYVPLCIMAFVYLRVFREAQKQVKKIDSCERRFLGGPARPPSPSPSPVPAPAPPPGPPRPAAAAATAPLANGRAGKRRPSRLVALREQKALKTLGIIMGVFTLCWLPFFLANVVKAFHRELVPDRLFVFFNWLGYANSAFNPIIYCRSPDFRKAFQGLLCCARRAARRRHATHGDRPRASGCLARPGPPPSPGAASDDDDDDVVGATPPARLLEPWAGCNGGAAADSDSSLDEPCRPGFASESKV
`Cc1noc2c(NCCc3ccccn3)cc(-c3ccccc3)nc12` has an EC50 of no less than 100 µM.
For `COc1ccc(CNCC(O)COc2ccc3[nH]c(=O)ccc3c2)cc1OC` (stereo not shown), the EC50 was no less than 100 µM.
`CC(C)(O)c1cc(CC2(NCc3cnc4ccccc4c3)COC2)no1` gave an EC50 of no less than 100 µM.
For `CC(=O)Oc1ccc2c(C)cc(=O)oc2c1`, the EC50 was no less than 100 µM.
For `CC(C)(C)c1ccc(O)c(O)c1`, the EC50 was no less than 100 µM.
`O=C(Nc1ccc2ccccc2n1)c1ccccc1OCc1cscn1` has an EC50 of no less than 100 µM.
`CC#CCn1cc2c3c(cccc31)[C@H](CC(C)C)N[C@H](C(=O)NCCNC(C)=O)C2` has an EC50 of no less than 100 µM.
`O=C(Nc1cccc(-c2ccc(N3CCOCC3)nn2)c1)Nc1cc(Cl)ccc1Cl` has an EC50 of no less than 100 µM.

Sample 4 — host: mouse; sample: microsomes or S9; tested at: 2 µM; time: 0.5 h
`O=C(O)c1cccnc1C(=O)OCc1ccccc1` has a remaining compound of 14.5%.
`Brc1cnn(CC2CCN(Cc3cncs3)CC2)c1` gave a remaining compound of 41%.
The remaining compound of `COc1cc(C)c2c(c1C=O)Oc1c(c(C)c(O)c3c1C(O)OC3=O)OC2=O` (stereo not shown) is reported as greater than 99%.
For `CN(C)CCCNCc1cccc(Oc2nnnn2-c2ccccc2)c1`, the remaining compound was 30%.
`CN1CCC2(CCN(c3cc(C(C)(C)C)nc(Cl)n3)CC2)C1=O` gave a remaining compound of 8.07%.
`Cc1cc(NC(=O)c2cc(C(=O)Nc3cc(C)n(C(C)C)n3)n(C)n2)nn1C(C)C` has a remaining compound of greater than 100%.
With `CCS(=O)(=O)CCNC(=O)NC(C)c1ccc(C)s1` (stereo not shown) the remaining compound was 48.5%.
`O=S(=O)(c1c[nH]c2ncc(Cl)cc12)N1CCn2ncnc2C1` gave a remaining compound of 28.7%.
`CC(C)(O)CC[C@@H](O)[C@](C)(O)C1CC[C@@]2(O)C3=CC(=O)C4C[C@@H](O)[C@@H](O)C[C@]4(C)C3CC[C@]12C` (stereo partly shown) gave a remaining compound of 95.8%.

For quick reference, copied from above (sample 4):
`O=C(O)c1cccnc1C(=O)OCc1ccccc1` has a remaining compound of 14.5%.
`Brc1cnn(CC2CCN(Cc3cncs3)CC2)c1` gave a remaining compound of 41%.
